Published values from different studies.
A part holds a random share of what one study measured.

Series 1
Target: RNA binding protein fox-1 homolog 2, RRM domain, GST-SBP tag (RBFOX2, Homo sapiens, UniProt O43251-10, residues 100-194)
Method: RNA Bind-n-Seq
Form: RNA
Sample: in vitro
Concentration: 365 nM
Notes: natural RNA segment, single round, ends assumed
Reference: no-protein control
Reading: higher = stronger binding
Measurement: RBNS enrichment (R)
Shared flanks, not repeated: GGGAGUUCUACAGUCCGACGAUC … UGGAAUUCUCGGGUGCCAA
Target sequence (chain): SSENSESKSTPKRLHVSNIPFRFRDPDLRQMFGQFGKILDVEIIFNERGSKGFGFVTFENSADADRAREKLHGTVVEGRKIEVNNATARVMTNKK
AAGGUAAGCAGGGCUGCCACUGUGGCCACGUAACCCUUCAGGAACCAGUGCUGAAGAAUAAUGAGUGAGAACACUUAAUUUGAGAGUUAGACAAAUACAGCCCACUUUGG: 0.468
AGGAUGAAAUAAACCUAGAAGUGGCAGAACACUGGAUUUGUGUGUGUGGCGCUUUAGGGUGCUGGACUGUAUGGCUGAGGGCUGGUUGGGUUCCUCUAUUGGCUCUGCUC: 0.714
AUUAAUUGCUAGUACUUGUUUUUUAAACAACACUUUGUAGCAUGGGAACAACCCUCCCCCUUUCCAUUCAUAAGUCCAAAUGUAAAUAAACGUAUGCAGAAUGUUAGCGU: 1.92
AUUGAACAUGUGAUAAUCUAAUACCUGUGAAAACUGACUAAUCAGCUGCCAAUAAUAUCUAAUAUUUUUCAUCAUGCACGAAUUAAUAAUCAUCAUACUCUAGAAUCUUG: 0.832
AGACGUGACUGGCUUUUAGAGUGAGCAUUUCAGUGGUUAGCUAUCAGCUUUUGAAGUCUGGGCAGUUGACAAAGACCAGCCUGGUCCUAGUUAAUGGUAGAAUACUCCCA: 0.336
GCCUCUUCACACACCGUCUGCCUGCCUGCUUCCUUCUGAGAAUAUUUUCCCAGUAUCUCCAGGCCUUCCUUAGUCUGUCCCACCGUGCAUCUGCUUACCUCAUGGCGCUG: 1.11

Series 2
Target: RING finger protein unkempt homolog, zinc fingers 1-6, GST-SBP tag (UNK, Homo sapiens, UniProt Q9C0B0, residues 30-357)
Chain of UniProt Q9C0B0 (30-357, looked up): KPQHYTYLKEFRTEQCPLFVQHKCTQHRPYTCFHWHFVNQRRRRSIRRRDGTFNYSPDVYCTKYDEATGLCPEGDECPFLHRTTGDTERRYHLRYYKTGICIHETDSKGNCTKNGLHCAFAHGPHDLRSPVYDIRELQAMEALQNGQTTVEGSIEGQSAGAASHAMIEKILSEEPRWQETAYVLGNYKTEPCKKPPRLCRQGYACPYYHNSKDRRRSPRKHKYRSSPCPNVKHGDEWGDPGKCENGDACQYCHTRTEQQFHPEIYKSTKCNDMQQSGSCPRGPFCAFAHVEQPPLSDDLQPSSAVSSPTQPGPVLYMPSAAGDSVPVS
Method: RNA Bind-n-Seq
Form: RNA
Sample: in vitro
Concentration: not given
Notes: RNA with constant flanks, ends assumed
Reference: input RNA pool
Reading: higher = stronger binding
Measurement: bound/input enrichment
Shared flanks, not repeated: GGGAGUUCUACAGUCCGACGAUC … CAACAGAGGAUUGAGCAUCA
CGUAGUCUCCUGCAGCGUCUGGGGUUUCCGUUGCAGUCCUCGGAACCAGGACCUCGGCGUGGCCCCGCGAGUUAUGGCGACGAAGGCCGUGUGCGUGCUGAAGGGCGACGGCCCAGUGCA: 0.132 ratio
GUAAGAUUCAUCUCCCGGUUAUGCCCUCCUGGAAAGCCCUUCCCAACAUAUUAUGUUGUCCACCGAGGGAAAAAUGAGCAAAGACAGAUGGCUUAACUCUGGUGUGUGACUAAGAUAUAG: 0.506 ratio
CCAGAAUGAUUCUGGGCAUAUACUAAGAAGAGCAGGUAUGGAAAGAUCUAUUGUCAGGGAAUCUCCGAAUUCCCUACACGAGUGGGAGAAAGAUGUCCAAAUUCCUUACGCAGUGGUAUU: 0.241 ratio
GAUACAAAAAACAAGGAUGGAGUUCUGGUGGAUGAAUUUGGAUUGCCACAGAUCCCUGCUUCACCGAUUUGCAUCAUUCAAGCAUAUCUUGUAAAACAAACACAUAUUAUGGGACUAGGA: 0.34 ratio
UCUCCUAGUAGUGAUCUCACACUUUCAAGUGUUCUCUGGGAUAGAGAGAGAUCAAGCUUUUACCGCCUGACGAGUUCAAACAUCAGUAAAUGGGAAUUAGAUGAUUCUUCAGAAAAGCAU: 0.333 ratio

Series 3
Target: Histone acetyltransferase KAT6A, both winged helices, GST fusion (KAT6A, Homo sapiens, UniProt Q92794, residues 1-181)
Method: protein binding microarray
Form: double-stranded DNA, one strand shown
Sample: in vitro
Concentration: not given
Notes: 8-mer, flanks averaged, mean of 2 arrays, mostly near background
Reference: not given
Reading: higher = stronger binding
Measurement: E-score
Target sequence (chain): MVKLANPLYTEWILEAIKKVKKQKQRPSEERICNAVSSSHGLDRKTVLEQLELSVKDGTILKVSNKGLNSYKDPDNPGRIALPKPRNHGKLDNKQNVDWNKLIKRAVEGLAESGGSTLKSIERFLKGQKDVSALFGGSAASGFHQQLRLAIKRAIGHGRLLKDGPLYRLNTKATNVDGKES
ACATCGAT: -0.106
CAAAGGAA: -0.0715
TGCCGCAA: 0.188
AATTACAC: 0.00513
GGTCAATA: -0.162

Single results of other studies
PhoQ, residues 284 288 289 292 302 303 AGCYAI  fold induction (PhoP, residues 12 14 15 18 19 IQSYL (Escherichia coli, UniProt P23836); Sort-seq, measured: YFP reporter; E. coli; PhoQ-PhoP variant library, together with: 10 µM Mg2+; reference: high Mg2+ state, higher = stronger signaling): 7.21
